Experimental data from different studies.
Compare with care: the assays were run in different laboratories. ± gives the spread as reported.

SMILES = CC[C@H](C)[C@H](NC(=O)[C@H](Cc1c[nH]c2ccccc12)NC(=O)[C@H](CCCNC(=N)N)NC(=O)[C@H](CCCCN)NC(=O)[C@H](CC(C)C)NC(=O)[C@H](CC(=O)O)NC(=O)[C@H](Cc1ccccc1)NC(=O)[C@H](C)NC(=O)[C@H](Cc1ccc(O)cc1)NC(=O)[C@H](CC(N)=O)NC(=O)[C@H](Cc1ccc(O)cc1)NC(=O)[C@H](CCCNC(=N)N)NC(=O)[C@H](Cc1ccc(O)cc1)NC(=O)[C@H](Cc1ccc(O)cc1)NC(=O)[C@@H](NC(=O)[C@H](CC(C)C)NC(=O)[C@H](C)NC(=O)[C@H](CC(N)=O)NC(=O)[C@H](Cc1ccc(O)cc1)NC(C)=O)[C@@H](C)CC)C(=O)N[C@@H](Cc1ccc(O)cc1)C(=O)N[C@@H](CC(C)C)C(N)=O; test = measured: HA-51 tetramer; system = antigen-experienced tetramer+ CD4 T cells, healthy adults, HLA-DRB1*0101; conditions = dose not given; measurement = α4β7+ CCR9+ cells; result = 12.5%
SMILES = CC(C)C[C@@H]1NC(=O)[C@H](CCCNC(=N)N)NC(=O)[C@H](CCCCN)NC(=O)[C@H](CC(=O)O)NC(=O)[C@H](CCCCN)NC(=O)[C@@H](CO)NC1=O; system = mice, orthotopic Panc1_A8; conditions = intraperitoneal, 10 µg/g daily, 12 days; measurement = tumour weight; result = 0.62 g
SMILES = CC(C)C[C@@H]1NC(=O)[C@@H](Cc2c[nH]c3ccccc23)NC(=O)[C@H](CCCNC(=N)N)NC(=O)[C@@H](CCC(=O)O)NC(=O)[C@H](CCC(N)=O)NC(=O)[C@@H](CCC(=O)O)NC(=O)[C@H](CCCNC(=N)N)NC(=O)[C@@H](Cc2c[nH]c3ccccc23)NC1=O; test = flow cytometry; system = LDLr-/- mouse, western diet, small intestine lamina propria; conditions = dose not given; how to read = baseline: vehicle; measurement = Helios+ to Th17 ratio; result = increased
SMILES = O=C(O)/C=C/c1cc(O)cc(O)c1; test = DPPH radical scavenging; conditions = 500 µg/mL; measurement = inhibition; result = 73.2 ± 1.17%
SMILES = CC[C@@]1(O)C(=O)OCc2c1cc1n(c2=O)Cc2cc3cc(OC(=O)CCCC(=O)NCC(=O)N[C@@H](Cc4ccccc4)C(=O)N[C@@H](Cc4ccccc4)C(=O)N[C@@H](Cc4ccc(OP(=O)(O)O)cc4)C(=O)NCCSSCCNC(=O)CCC(=O)N[C@@H](CCC(=O)O)C(=O)N[C@@H](CCCNC(=N)N)C(=O)NCC(=O)N[C@@H](CC(=O)O)C(=O)O)ccc3nc2-1; system = nude mice, HepG2 xenograft; conditions = dose not given, day 21, initial 300 mm^3; how to read = baseline: saline over compound; measurement = tumour volume ratio; result = ~9 fold
SMILES = CCOP(=O)(OCC)OCCCCOC(=O)CC1=C(C)C(=Cc2ccc([S+](C)[O-])cc2)c2ccc(F)cc21 (stereo not shown); test = ELISA; system = mice, orthotopic lung tumour, plasma; conditions = inhalation, dose not given; how to read = baseline: control; measurement = plasma 8-iso-PGF2α level; result = > 2 fold
SMILES = O=C(O)CCn1c(=O)oc2cc(Cl)c(Cl)cc21; system = rat, acute pancreatitis, lung; conditions = dose not given; measurement = ED1-positive cells; result = increased
SMILES = CCOP(=O)(OCC)OCCCCOC(=O)CC1=C(C)/C(=C/c2ccc([S+](C)[O-])cc2)c2ccc(F)cc21 (stereo not shown); system = rat, Freund's adjuvant arthritis; conditions = oral, 50 mg/kg once daily, prevention protocol; how to read = baseline: control; measurement = paw weight reduction; result = 60%
SMILES = CSCC[C@H](NC(=O)CNC(=O)[C@H](CC(=O)O)NC(=O)[C@@H](NC(=O)[C@@H](NC(=O)[C@@H](NC(=O)CNC(=O)[C@H](CCC(N)=O)NC(=O)[C@H](CCSC)NC(=O)[C@H](CC(=O)O)NC(=O)[C@H](C)NC(=O)[C@H](C)NC(=O)[C@@H](NC(=O)[C@H](CO)NC(=O)[C@@H](N)CC(C)C)[C@@H](C)O)C(C)C)C(C)C)[C@@H](C)O)C(=O)N[C@@H](C)C(=O)N[C@@H](CO)C(=O)NCC(=O)N[C@@H](CC(C)C)C(=O)N[C@@H](CC(=O)O)C(=O)N[C@@H](CCCCN)C(=O)N[C@@H](CC(=O)O)C(=O)N[C@@H](Cc1ccc(O)cc1)C(=O)N[C@@H](CC(C)C)C(=O)N[C@@H](CCCCN)C(=O)N1CCC[C@H]1C(=O)N[C@@H](CC(=O)O)C(=O)N[C@@H](CC(=O)O)C(=O)O; system = patients with partial response, p53-positive solid tumours; conditions = dose not given, deceased patients; measurement = survival; result = 44 to 71 weeks
SMILES = CC(C)C[C@@H]1NC(=O)[C@H](C(C)C)NC(=O)[C@H](CO)NC(=O)CNC(=O)CNC(=O)[C@H](CCCNC(=N)N)NC(=O)[C@@H]2CCCN2C(=O)[C@@H](NC(=O)CC[C@H](NC(=O)c2ccc(N(C)Cc3cnc4nc(N)nc(N)c4n3)cc2)C(=O)O)C(C)(C)SSC[C@@H](C(=O)O)NC(=O)CNC(=O)[C@H]([C@@H](C)O)NC(=O)[C@H](C(C)C)NC1=O; system = rat adjuvant arthritis; conditions = iv, 5 mg/kg once daily, day 14; how to read = baseline: arthritis vehicle, direction not given; measurement = inflammation score reduction; result = 56%

Excerpt of the above:
SMILES = CC(C)C[C@@H]1NC(=O)[C@@H](Cc2c[nH]c3ccccc23)NC(=O)[C@H](CCCNC(=N)N)NC(=O)[C@@H](CCC(=O)O)NC(=O)[C@H](CCC(N)=O)NC(=O)[C@@H](CCC(=O)O)NC(=O)[C@H](CCCNC(=N)N)NC(=O)[C@@H](Cc2c[nH]c3ccccc23)NC1=O; test = flow cytometry; system = LDLr-/- mouse, western diet, small intestine lamina propria; conditions = dose not given; how to read = baseline: vehicle; measurement = Helios+ to Th17 ratio; result = increased
